{"data": "Results of several laboratories", "note": "Every numbered part comes from another study and shows a few of its results, in no order. Changes are numbered by the printed parent chain."}
{"data": "Set 1", "target": "Protein C-ets-1 (ETS1, Homo sapiens, UniProt P14921, residues 1-441, K379A, full length assumed)", "method": "protein-binding microarray", "form": "double-stranded DNA, one strand shown", "medium": "in vitro", "tested at": "not given", "notes": "k-mer, scored over probes, only values ≥0.25", "reading": "higher = stronger binding", "Construct (chain)": "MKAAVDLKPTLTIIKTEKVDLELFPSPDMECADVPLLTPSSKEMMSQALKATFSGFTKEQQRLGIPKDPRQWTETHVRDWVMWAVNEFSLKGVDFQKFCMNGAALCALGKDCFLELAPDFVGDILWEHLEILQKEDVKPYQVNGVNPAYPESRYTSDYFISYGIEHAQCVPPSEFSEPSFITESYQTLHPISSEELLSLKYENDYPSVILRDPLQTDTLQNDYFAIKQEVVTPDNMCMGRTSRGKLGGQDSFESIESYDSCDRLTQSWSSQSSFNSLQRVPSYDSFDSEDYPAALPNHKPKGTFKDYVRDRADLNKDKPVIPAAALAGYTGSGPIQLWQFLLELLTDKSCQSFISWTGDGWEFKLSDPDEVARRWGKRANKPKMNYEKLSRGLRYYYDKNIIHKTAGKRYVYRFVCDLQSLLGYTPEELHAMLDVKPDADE"}
{"Oligonucleotide": "CGGTTCAG", "E-score": 0.27}
{"Oligonucleotide": "CCGGCGTC", "E-score": 0.27}
{"Oligonucleotide": "ACCGATAC", "E-score": 0.262}
{"Oligonucleotide": "CCGTCAAA", "E-score": 0.319}
{"Oligonucleotide": "CTTCCGGC", "E-score": 0.405}
{"Oligonucleotide": "CGGAAGCA", "E-score": 0.332}
{"Oligonucleotide": "AGTGCCGG", "E-score": 0.311}
{"Oligonucleotide": "AATGACCG", "E-score": 0.266}
{"data": "Set 2", "target": "Ras GTPase-activating protein-binding protein 1, RRM domain (G3BP1, Homo sapiens, UniProt Q13283)", "method": "RNA Bind-n-Seq", "form": "RNA", "medium": "in vitro", "tested at": "1 µM", "notes": "whole 134-nt RNA, ends assumed", "added": "150 mM KCl", "relative to": "input library", "reading": "higher = stronger binding", "shared flanks, not repeated": "GGGAGUUCUACAGUCCGACGAUC … UGGAAUUCUCGGGUGUCAAGG", "UniProt Q13283, sequence (whole entry, looked up)": "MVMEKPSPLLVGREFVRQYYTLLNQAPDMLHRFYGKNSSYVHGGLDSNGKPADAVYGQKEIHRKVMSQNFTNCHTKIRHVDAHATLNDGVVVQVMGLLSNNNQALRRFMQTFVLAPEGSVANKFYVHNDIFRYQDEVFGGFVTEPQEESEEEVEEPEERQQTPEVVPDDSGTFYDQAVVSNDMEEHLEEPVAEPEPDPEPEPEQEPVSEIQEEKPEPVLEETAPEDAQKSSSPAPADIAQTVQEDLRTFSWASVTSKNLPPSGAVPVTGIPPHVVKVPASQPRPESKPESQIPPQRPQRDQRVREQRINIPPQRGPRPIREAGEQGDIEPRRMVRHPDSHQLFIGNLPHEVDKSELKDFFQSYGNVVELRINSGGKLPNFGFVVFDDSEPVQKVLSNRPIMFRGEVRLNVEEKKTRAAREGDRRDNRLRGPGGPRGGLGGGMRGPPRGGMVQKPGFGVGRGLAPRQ"}
{"Oligonucleotide": "CUGUGCUACACAUCGUAUGUACCGAAUCGGGCCCCCCGGGGCCCCCCGGGGCCCCCCGGGGAAAGUAUUAUGUUACGCCGUUCGGAUCUG", "log2 enrichment": -0.662}
{"Oligonucleotide": "CCUGUGCUACACAUCGUAUGUACCGAAUCGGGGAAAAAGGGGUUUGGGGAAAAAAAGGGGAAAGUAUUAUGUUACGCCGUUCGGAUCUGC", "log2 enrichment": 0.553}
{"Oligonucleotide": "UGUGCUACACAUCGUAUGUACCGAAUCGGGGUUUUUGGGGUUUUUUUGGGGAAAAAAAGGGGAAAGUAUUAUGUUACGCCGUUCGGAUCU", "log2 enrichment": 1.31}
{"Oligonucleotide": "CAAGUCCUGUGCUACACAUCGUAUGUACCGAAUCGGCCCGGGCCCGGGGCCCGGGAAAGUAUUAUGUUACGCCGUUCGGAUCUGCACUUC", "log2 enrichment": -0.692}
{"Oligonucleotide": "UGGGAGGUGGAUUUUGUUUAUUUUUUUAGCUCAUUUCCAGGGGUGGGAAUUUUUUUUUAAUAAGUGUCAUGAAUAAAGUUGUUUUUGAAA", "log2 enrichment": 2.18}
{"Oligonucleotide": "UGGCCCUGGUGGCAUGCGGGGAGGAAGAGGUGGCCUCAUGGAUCGUGGUGGUCCCUGUGGAAUGUUCAGAGGUGGCCGUGGUGGAGACAG", "log2 enrichment": 0.56}
{"Oligonucleotide": "CACAGACAACACGCACGCACACAGACACAGAGGGAAGGGGUUGGGAUGGGGACAGGGUGCACAGCAGGGCGGGGUAGGACCCCAGCCCCU", "log2 enrichment": -0.194}
{"Oligonucleotide": "GUCCUGUGCUACACAUCGUAUGUACCGAAUCGGGGAAAAGGGGAAAAGGGAAAAGGGGAAAGUAUUAUGUUACGCCGUUCGGAUCUGCAC", "log2 enrichment": 0.419}
{"data": "Set 3", "target": "Interferon regulatory factor 5, full length, phosphomimetic (IRF5, Homo sapiens, UniProt Q13568-2, residues 1-514, S451D/S453D/S456D/S462D)", "method": "protein-binding microarray", "form": "double-stranded DNA, one strand shown", "medium": "in vitro", "tested at": "940 nM top", "notes": "60-bp whole probe", "added": "salmon DNA 0.4 mg/ml", "relative to": "random background probes", "reading": "higher = stronger binding", "shared flanks, not repeated": "GCCTAGCAC … GTCTTGATTCGCTTGACGCTGCTG"}
{"Oligonucleotide": "TCACCTATAGGTTTCTAACTGTGCTAG", "fitted relative affinity": "0.588 z-score"}
{"Oligonucleotide": "TTAGGTATCGACACTGGTTTAGTGCTA", "fitted relative affinity": "4.83 z-score"}
{"Oligonucleotide": "GACGATCTCAGTCTTGAGACGTGCTAG", "fitted relative affinity": "0.166 z-score"}
{"Oligonucleotide": "GGCGGTTTCGGGTTTCGGGACGTGCTA", "fitted relative affinity": "9.71 z-score"}
{"Oligonucleotide": "TCACATTTATATCTTTGACTGTGCTAG", "fitted relative affinity": "0.811 z-score"}
{"Oligonucleotide": "TCACTGCTCCTCTTTTTTACTGTGCTA", "fitted relative affinity": "1.12 z-score"}
{"Oligonucleotide": "CTTAGCATGGGGAGGGAGCAGTGCTAG", "fitted relative affinity": "1.34 z-score"}
{"Oligonucleotide": "GACGATATCTGGACTGGAGACGTGCTA", "fitted relative affinity": "-0.464 z-score"}
{"data": "Single results of other studies", "starting sequence": "PafA, mature enzyme, eGFP fusion (Elizabethkingia meningoseptica, UniProt Q9KJX5); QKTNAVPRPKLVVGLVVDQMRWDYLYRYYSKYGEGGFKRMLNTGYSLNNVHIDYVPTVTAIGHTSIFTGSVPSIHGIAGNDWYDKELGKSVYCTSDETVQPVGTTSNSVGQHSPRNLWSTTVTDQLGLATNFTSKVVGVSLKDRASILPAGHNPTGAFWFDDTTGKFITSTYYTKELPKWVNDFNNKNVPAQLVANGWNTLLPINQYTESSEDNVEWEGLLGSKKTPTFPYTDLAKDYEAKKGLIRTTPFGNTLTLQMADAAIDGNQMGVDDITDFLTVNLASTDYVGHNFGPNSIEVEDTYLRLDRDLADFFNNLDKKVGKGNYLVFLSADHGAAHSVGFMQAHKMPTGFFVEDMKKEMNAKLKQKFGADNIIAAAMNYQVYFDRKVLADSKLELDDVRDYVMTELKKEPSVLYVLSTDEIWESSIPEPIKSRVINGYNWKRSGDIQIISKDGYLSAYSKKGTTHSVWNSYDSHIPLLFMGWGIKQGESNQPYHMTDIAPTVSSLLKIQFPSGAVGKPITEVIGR"}
{"Substitution": "M360V", "target": "inorganic phosphate, free oxyanion", "assay": "microfluidic competitive inhibition", "test system": "in vitro, cell-free expressed", "setting": "not given, derived from inhibition constants, unchanged parent 615000 nM", "how to read": "lower = stronger binding", "quantity": "phosphate dissociation constant", "value": "631 µM"}
{"note": "A few entries again (set 3):"}
{"Oligonucleotide": "TTAGGTATCGACACTGGTTTAGTGCTA", "fitted relative affinity": "4.83 z-score"}
{"Oligonucleotide": "GACGATCTCAGTCTTGAGACGTGCTAG", "fitted relative affinity": "0.166 z-score"}
{"Oligonucleotide": "GGCGGTTTCGGGTTTCGGGACGTGCTA", "fitted relative affinity": "9.71 z-score"}
